Measured values pooled from the literature.
Each numbered part is a random draw from the data of one study; scales do not carry over between parts. Values joined by “and” are separate records of one study, mostly repeats; a detail may differ.
UniProt P37173, sequence (whole entry, looked up): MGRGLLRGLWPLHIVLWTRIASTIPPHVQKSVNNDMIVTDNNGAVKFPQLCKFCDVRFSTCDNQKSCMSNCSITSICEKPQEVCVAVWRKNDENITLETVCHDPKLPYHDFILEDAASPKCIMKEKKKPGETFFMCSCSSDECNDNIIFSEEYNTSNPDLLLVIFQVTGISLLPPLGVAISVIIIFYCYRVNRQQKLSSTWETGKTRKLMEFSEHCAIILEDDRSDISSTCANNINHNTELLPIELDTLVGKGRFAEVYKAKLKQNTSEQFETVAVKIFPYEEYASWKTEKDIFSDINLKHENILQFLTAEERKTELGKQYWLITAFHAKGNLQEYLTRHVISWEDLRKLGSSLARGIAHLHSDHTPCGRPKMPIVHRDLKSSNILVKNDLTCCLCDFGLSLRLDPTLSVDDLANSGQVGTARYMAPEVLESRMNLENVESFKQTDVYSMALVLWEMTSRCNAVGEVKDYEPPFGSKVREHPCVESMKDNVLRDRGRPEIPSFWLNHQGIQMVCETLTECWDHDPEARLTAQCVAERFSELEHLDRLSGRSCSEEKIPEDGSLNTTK
UniProt O94804, sequence (whole entry, looked up): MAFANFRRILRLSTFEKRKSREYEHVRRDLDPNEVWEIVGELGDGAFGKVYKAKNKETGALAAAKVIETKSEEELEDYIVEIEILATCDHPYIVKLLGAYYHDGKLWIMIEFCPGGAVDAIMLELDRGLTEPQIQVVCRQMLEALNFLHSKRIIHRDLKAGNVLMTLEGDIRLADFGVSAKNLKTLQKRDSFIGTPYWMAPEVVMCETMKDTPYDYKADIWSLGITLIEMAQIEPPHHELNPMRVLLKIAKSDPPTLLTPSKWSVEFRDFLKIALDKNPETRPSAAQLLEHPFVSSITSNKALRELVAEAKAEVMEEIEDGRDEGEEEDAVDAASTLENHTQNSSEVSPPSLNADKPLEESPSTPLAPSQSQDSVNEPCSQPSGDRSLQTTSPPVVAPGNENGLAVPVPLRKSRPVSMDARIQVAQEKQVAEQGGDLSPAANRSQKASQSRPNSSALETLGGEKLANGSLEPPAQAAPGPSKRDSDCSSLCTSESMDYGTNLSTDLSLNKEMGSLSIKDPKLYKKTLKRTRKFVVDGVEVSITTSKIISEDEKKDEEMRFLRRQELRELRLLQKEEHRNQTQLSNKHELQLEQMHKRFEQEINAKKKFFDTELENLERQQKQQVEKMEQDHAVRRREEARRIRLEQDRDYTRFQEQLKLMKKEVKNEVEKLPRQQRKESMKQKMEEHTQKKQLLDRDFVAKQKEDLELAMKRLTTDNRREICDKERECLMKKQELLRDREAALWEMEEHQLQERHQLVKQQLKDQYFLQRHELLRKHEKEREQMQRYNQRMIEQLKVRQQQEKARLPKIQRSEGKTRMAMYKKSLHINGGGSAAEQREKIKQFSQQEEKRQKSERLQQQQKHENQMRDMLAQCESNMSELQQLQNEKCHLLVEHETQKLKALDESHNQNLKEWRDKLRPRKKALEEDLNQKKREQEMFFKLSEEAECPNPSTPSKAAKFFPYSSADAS
UniProt Q9UIK4, sequence (whole entry, looked up): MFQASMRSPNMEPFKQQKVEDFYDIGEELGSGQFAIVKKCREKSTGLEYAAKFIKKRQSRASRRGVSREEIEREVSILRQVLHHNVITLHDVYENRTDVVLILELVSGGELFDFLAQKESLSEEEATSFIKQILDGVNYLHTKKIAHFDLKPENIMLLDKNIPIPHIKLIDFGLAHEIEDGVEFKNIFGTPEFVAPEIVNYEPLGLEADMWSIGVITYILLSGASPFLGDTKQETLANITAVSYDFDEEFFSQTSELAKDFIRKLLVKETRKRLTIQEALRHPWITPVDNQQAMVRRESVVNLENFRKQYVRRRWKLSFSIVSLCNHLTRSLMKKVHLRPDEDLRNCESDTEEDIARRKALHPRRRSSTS
UniProt Q04771, sequence (whole entry, looked up): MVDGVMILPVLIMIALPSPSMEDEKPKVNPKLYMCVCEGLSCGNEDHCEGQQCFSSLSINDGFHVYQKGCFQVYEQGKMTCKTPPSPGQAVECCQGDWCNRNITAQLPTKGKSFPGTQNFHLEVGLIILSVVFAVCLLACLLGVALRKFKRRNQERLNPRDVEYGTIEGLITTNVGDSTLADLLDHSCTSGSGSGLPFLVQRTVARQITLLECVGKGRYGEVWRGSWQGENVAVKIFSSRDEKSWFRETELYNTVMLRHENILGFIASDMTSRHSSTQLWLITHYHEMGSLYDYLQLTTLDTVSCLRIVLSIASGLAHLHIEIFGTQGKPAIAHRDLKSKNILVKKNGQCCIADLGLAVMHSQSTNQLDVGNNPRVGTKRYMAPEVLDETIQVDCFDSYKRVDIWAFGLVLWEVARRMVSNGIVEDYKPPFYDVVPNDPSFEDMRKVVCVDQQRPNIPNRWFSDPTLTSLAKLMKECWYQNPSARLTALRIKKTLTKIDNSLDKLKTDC
UniProt P29320, sequence (whole entry, looked up): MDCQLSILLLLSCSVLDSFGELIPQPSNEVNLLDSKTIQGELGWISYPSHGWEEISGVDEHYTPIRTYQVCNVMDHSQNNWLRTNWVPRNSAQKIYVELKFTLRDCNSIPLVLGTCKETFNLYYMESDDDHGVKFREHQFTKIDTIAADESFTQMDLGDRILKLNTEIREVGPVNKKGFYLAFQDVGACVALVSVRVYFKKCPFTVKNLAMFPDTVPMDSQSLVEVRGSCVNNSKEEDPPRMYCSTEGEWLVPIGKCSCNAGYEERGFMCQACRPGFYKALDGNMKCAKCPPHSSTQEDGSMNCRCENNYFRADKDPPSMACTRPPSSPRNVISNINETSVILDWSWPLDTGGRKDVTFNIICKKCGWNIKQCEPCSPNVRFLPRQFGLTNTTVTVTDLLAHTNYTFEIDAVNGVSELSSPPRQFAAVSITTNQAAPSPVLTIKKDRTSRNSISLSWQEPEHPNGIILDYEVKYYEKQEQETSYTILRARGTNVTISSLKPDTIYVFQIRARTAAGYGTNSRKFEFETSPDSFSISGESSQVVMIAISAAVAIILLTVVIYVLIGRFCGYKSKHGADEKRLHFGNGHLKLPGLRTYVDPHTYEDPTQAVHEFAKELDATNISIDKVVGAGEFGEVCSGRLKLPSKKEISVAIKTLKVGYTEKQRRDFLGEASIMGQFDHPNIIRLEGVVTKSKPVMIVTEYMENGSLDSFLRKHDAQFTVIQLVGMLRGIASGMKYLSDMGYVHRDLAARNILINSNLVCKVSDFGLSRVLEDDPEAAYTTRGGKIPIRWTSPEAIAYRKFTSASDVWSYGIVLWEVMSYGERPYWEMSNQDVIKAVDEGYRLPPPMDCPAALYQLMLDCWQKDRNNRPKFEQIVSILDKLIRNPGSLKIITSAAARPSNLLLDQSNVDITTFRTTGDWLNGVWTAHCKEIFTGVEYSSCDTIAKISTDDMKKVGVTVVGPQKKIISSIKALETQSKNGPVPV
UniProt Q9UKI8, sequence (whole entry, looked up): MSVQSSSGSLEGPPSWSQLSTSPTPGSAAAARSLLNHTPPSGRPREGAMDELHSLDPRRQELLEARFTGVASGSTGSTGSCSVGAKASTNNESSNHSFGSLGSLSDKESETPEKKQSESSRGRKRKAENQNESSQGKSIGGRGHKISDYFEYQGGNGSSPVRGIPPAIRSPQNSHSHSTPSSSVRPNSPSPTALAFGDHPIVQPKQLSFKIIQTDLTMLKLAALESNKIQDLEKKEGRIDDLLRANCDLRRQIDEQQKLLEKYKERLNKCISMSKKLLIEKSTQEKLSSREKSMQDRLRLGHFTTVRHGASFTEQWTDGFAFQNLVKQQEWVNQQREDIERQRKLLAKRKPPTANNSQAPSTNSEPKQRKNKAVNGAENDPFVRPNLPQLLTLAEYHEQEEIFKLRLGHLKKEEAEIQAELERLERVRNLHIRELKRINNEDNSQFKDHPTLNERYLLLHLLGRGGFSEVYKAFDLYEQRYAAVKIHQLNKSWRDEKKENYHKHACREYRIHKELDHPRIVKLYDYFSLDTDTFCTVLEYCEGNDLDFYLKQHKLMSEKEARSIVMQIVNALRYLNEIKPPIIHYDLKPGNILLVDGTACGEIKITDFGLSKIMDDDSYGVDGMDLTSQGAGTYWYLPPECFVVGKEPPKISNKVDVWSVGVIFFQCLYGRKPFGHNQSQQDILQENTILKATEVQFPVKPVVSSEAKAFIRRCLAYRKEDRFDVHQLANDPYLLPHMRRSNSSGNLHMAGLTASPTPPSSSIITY
UniProt O95747, sequence (whole entry, looked up): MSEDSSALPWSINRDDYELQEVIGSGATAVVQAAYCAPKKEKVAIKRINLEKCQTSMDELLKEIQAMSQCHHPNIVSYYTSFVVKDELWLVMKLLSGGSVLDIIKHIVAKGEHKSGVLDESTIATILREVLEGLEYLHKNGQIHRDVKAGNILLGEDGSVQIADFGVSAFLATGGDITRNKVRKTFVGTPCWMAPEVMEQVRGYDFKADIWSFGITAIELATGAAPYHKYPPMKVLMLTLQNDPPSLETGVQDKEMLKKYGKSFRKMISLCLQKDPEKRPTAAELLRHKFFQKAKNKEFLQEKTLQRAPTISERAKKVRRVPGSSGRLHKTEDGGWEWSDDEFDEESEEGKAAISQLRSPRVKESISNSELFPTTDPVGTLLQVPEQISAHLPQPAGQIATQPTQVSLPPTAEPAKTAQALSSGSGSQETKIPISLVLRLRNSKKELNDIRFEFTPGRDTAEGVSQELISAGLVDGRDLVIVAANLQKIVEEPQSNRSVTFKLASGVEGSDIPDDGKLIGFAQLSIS
UniProt P11802, sequence (whole entry, looked up): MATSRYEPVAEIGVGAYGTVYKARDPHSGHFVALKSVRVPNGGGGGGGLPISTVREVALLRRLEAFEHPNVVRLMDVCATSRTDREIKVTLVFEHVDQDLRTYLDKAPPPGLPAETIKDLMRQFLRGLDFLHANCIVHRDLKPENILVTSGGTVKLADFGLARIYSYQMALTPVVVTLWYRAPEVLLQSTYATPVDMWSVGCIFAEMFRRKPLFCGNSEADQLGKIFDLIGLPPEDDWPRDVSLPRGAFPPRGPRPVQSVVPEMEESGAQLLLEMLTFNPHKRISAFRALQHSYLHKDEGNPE

Study 1
Structure (SMILES): C[C@H](c1ccc(F)cc1)N(Cc1cccc(C(=O)O)c1)C(=O)c1cnc2ccccc2c1
Observed: cell-free assay
Method: competition with immobilised ligand
Tested at: 1 µM
target	remaining binding
ITK (Homo sapiens, UniProt Q08881)	84%
EPHA3 (Homo sapiens, UniProt P29320)	85%
PRKD2 (Homo sapiens, UniProt Q9BZL6)	100%
TIE1 (Homo sapiens, UniProt P35590)	93%
TLK1 (Homo sapiens, UniProt Q9UKI8)	97%
MAP2K5 (Homo sapiens, UniProt Q13163)	92%
TGFBR2 (Homo sapiens, UniProt P37173)	100%
CSK (Homo sapiens, UniProt P41240)	100%
CAMKK1 (Homo sapiens, UniProt Q8N5S9)	100%
Tyrosine-protein kinase JAK2, JH1 (JAK2, Homo sapiens, UniProt O60674)	88%
RPS6KB1 (Homo sapiens, UniProt P23443)	100%
STK33 (Homo sapiens, UniProt Q9BYT3)	100%
ACVR1 (Homo sapiens, UniProt Q04771)	100%

Study 2
SMILES: CC(=O)O/N=C1/C(c2c(O)[nH]c3cc(Br)ccc23)=Nc2ccccc21
Observed: enzyme activity
Mode: inhibitor
Tested at: 0.5 µM
Reference: control
target	remaining activity
DAPK2 (Homo sapiens, UniProt Q9UIK4)	68.7%
MAP3K3 (Homo sapiens, UniProt Q99759)	97.4%
NEK2 (Homo sapiens, UniProt P51955)	73.9%
TGFBR1 (Homo sapiens, UniProt P36897)	101%
PRKCA (Homo sapiens, UniProt P17252)	105%
STK10 (Homo sapiens, UniProt O94804)	99.3%
Cyclin-dependent kinase 4, with cyclin D1 (CDK4, Homo sapiens, UniProt P11802)	73.3%
OXSR1 (Homo sapiens, UniProt O95747)	112%
IKBKB (Homo sapiens, UniProt O14920)	92.4%
DAPK1 (Homo sapiens, UniProt P53355)	86.8%

Study 3
SMILES: COc1cc(C(=O)OCCCN2CCCN(CCCOC(=O)c3cc(OC)c(OC)c(OC)c3)CC2)cc(OC)c1OC
test	system	setting	paw withdrawal frequency
von Frey, 0.4 g filament	mouse, CFA inflammatory pain	intravenous, dose not given, 5 h post-dose, second injection, day 3	90% and 80% and 70%
von Frey, 0.4 g filament	mouse, CFA inflammatory pain	intravenous, dose not given, 1 h post-dose, second injection, day 3	80% and 70% and 90%
von Frey test	mouse, STZ diabetic neuropathy	subcutaneous, 30 mg/kg, second of three doses, 1 h	0.29 fraction of stimuli and 0.51 fraction of stimuli and 0.13 fraction of stimuli and 0.15 fraction of stimuli and 0.12 fraction of stimuli
von Frey, 0.4 g filament	mouse, CFA inflammatory pain	intravenous, dose not given, 24 h post-dose, first injection, day 1	100% and 90% and 70% and 80%
von Frey, 0.4 g filament	mouse, CFA inflammatory pain	intravenous, baseline before CFA	10% and 20% and 0%
von Frey, 0.4 g filament	mouse, CFA inflammatory pain	subcutaneous, 10 mg/kg, 5 h post-dose, second injection, day 3	80% and 70% and 60%
von Frey, 0.4 g filament	mouse, CFA inflammatory pain	subcutaneous, 10 mg/kg, 1 h post-dose, second injection, day 3	90% and 80% and 60% and 70%
von Frey, 0.4 g filament	mouse, CFA inflammatory pain	intravenous, dose not given, 3 h post-dose, first injection, day 1	90% and 80% and 70%
von Frey, 0.4 g filament	mouse, CFA inflammatory pain	subcutaneous, 10 mg/kg, 3 h post-dose, third injection, day 5	70% and 60% and 80% and 90%
von Frey, 0.4 g filament	mouse, CFA inflammatory pain	intravenous, dose not given, 5 h post-dose, third injection, day 5	80% and 100% and 90%

Study 4
Host: mouse
Medium: microsomes or S9
Tested at: 2 µM
Time: 0.5 h
SMILES	remaining compound [%]
Cc1nc(CC(C)C)cc(C(=O)N2C[C@@H](N(C)C)[C@H](C(C)C)C2)n1	1.29
O=C1CC(C(=O)Nc2ccccc2-c2ccccc2)c2ccccc21 (centres unmarked)	3.15
CC(C)Nc1nc(NCCO)nc(N2CCC(N3CCOC(C)C3)CC2)n1 (centres unmarked)	63.2
Cc1nc(C)c(C(=O)N2C3CCC2Cn2c(nnc2-c2ccccc2)C3)s1 (centres unmarked)	> 100
O=C(CN1C(=O)CCC1=O)N1CC(S(=O)(=O)C2CCCCC2)C1	62.5
NC(=O)C1CN(c2cc(=O)n3ccccc3n2)CCN1 (centres unmarked)	84
Cc1ccc(C(=O)NNc2ccccn2)c(Nc2ccc3cn[nH]c3c2)n1	5.3
CN(CCO)S(=O)(=O)c1ccc2c(c1)oc(=O)c1cc(S(=O)(=O)N(C)CCO)ccc12	27.6

Some of these lines once more (study 2):
target	remaining activity
TGFBR1 (Homo sapiens, UniProt P36897)	101%
PRKCA (Homo sapiens, UniProt P17252)	105%
STK10 (Homo sapiens, UniProt O94804)	99.3%
